Measured values gathered from unrelated publications.
Parts stem from different laboratories: compare values within a part only.
UniProt P42336, sequence (whole entry, unmodified, looked up): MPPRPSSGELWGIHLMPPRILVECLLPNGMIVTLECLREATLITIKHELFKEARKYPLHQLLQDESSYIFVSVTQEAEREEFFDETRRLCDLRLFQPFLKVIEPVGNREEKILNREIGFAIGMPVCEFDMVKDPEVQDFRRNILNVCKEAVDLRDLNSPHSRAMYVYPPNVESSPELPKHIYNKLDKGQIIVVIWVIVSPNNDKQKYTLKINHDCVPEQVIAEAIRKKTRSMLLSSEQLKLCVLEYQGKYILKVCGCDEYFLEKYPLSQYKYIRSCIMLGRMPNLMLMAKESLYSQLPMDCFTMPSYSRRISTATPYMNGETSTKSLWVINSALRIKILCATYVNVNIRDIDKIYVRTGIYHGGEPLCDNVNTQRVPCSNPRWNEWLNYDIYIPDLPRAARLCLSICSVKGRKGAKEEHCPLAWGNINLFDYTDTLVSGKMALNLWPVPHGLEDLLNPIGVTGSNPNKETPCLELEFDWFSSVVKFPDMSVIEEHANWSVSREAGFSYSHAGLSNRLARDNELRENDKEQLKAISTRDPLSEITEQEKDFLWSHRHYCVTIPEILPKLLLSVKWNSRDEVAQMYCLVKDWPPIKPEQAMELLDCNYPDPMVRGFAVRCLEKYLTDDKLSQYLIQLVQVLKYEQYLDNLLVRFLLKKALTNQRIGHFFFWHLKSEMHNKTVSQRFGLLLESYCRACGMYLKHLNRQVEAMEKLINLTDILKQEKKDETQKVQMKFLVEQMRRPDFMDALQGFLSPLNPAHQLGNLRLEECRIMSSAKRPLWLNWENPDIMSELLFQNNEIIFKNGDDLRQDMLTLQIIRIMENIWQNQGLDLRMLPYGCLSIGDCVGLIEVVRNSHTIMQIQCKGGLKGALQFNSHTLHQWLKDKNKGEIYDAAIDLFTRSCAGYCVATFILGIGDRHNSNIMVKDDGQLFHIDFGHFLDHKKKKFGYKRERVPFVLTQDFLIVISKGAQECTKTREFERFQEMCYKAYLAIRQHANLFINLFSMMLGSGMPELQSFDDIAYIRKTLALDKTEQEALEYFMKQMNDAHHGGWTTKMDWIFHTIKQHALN
UniProt P68400, sequence (whole entry, looked up): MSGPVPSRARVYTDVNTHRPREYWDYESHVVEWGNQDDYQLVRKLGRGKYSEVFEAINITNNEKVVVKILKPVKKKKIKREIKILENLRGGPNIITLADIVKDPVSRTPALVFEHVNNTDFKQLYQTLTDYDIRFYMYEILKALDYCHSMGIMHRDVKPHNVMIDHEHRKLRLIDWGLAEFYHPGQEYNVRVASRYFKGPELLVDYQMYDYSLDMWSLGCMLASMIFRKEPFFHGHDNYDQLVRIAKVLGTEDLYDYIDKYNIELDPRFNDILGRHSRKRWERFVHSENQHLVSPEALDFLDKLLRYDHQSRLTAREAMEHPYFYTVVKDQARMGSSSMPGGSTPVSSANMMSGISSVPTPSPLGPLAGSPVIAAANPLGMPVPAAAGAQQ
UniProt O14757, sequence (whole entry, looked up): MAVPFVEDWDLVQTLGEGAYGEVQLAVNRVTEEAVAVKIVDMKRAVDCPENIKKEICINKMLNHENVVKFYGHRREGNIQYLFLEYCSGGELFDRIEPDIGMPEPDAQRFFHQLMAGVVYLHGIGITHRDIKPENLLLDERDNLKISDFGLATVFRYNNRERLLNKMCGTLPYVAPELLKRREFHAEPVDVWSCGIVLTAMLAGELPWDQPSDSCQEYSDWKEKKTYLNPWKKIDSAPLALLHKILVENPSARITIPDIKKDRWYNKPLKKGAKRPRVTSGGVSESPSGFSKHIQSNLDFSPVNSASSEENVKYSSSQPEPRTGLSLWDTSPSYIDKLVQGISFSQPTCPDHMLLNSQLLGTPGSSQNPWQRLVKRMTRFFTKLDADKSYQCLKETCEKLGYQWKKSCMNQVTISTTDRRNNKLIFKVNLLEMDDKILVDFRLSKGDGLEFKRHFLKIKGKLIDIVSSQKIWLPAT
UniProt Q12851, sequence (whole entry, looked up): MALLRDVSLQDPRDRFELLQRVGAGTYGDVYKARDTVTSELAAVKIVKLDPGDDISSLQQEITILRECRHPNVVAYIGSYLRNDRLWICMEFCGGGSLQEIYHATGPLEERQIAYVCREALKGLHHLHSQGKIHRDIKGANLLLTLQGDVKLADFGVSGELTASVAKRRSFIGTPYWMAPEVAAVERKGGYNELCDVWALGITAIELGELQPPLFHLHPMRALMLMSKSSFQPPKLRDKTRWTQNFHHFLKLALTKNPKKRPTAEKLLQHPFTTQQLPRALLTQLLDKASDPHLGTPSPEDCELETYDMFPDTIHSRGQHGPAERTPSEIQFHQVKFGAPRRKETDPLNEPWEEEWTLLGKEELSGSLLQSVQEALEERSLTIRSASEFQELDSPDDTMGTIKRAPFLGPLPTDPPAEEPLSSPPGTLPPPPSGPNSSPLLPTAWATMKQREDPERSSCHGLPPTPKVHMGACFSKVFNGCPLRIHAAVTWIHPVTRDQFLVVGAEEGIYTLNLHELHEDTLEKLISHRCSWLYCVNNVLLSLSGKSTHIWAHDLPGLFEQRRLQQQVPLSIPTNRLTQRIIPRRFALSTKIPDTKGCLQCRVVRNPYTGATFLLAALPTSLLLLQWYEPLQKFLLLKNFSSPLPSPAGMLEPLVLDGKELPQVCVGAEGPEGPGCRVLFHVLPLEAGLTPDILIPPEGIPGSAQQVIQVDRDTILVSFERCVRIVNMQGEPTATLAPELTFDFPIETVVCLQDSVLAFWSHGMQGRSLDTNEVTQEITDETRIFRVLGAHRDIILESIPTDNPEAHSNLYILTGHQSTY
UniProt Q9Y243, sequence (whole entry, looked up): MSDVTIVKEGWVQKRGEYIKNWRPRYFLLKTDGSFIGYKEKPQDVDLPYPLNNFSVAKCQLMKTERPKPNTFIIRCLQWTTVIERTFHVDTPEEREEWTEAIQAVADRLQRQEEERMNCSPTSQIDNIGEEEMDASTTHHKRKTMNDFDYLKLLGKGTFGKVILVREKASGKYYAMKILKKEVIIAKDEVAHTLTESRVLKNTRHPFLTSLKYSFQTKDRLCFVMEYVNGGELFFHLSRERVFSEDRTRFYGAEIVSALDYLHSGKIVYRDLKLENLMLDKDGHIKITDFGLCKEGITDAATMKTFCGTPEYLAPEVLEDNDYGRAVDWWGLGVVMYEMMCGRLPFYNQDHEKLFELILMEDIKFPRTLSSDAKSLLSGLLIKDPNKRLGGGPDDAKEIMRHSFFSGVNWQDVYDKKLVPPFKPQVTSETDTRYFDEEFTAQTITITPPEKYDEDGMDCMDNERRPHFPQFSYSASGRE
UniProt P50750, sequence (whole entry, looked up): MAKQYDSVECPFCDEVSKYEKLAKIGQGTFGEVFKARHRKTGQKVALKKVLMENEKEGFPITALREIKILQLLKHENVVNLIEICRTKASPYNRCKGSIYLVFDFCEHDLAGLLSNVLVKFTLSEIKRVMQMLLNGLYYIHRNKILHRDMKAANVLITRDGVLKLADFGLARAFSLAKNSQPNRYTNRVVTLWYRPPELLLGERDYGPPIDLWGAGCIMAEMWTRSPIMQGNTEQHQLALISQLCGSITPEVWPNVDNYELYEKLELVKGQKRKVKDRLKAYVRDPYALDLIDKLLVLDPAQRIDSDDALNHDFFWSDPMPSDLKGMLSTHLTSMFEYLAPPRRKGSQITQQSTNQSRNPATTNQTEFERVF
UniProt P51957, sequence (whole entry, looked up): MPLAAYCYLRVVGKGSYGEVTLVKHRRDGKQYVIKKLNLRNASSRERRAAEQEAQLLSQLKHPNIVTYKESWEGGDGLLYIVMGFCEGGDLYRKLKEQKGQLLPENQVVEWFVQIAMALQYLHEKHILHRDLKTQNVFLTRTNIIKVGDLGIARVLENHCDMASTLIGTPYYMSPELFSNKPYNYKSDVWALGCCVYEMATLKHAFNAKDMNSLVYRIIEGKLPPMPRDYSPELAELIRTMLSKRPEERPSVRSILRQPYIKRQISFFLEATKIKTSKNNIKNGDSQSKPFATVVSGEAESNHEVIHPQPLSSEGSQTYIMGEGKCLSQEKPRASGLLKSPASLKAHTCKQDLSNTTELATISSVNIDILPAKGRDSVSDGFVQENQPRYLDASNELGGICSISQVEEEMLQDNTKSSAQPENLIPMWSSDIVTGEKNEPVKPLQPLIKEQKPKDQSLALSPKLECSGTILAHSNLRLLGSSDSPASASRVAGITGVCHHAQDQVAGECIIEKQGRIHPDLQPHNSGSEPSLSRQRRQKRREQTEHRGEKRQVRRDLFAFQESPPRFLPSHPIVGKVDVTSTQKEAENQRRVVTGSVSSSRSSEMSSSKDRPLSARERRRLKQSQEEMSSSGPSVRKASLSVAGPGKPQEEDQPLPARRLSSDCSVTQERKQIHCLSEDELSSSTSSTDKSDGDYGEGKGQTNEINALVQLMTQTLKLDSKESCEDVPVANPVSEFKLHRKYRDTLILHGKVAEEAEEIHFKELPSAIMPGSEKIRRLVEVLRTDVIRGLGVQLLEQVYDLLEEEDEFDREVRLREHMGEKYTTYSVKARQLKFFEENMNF

Series 1 — effect on: enzyme activity; action: inhibitor; concentration: 10 µM; quantity: inhibition
Target: Calcium/calmodulin-dependent protein kinase type II subunit alpha (CAMK2A, Homo sapiens, UniProt Q9UQM7)
UniProt Q9UQM7, sequence (whole entry, looked up): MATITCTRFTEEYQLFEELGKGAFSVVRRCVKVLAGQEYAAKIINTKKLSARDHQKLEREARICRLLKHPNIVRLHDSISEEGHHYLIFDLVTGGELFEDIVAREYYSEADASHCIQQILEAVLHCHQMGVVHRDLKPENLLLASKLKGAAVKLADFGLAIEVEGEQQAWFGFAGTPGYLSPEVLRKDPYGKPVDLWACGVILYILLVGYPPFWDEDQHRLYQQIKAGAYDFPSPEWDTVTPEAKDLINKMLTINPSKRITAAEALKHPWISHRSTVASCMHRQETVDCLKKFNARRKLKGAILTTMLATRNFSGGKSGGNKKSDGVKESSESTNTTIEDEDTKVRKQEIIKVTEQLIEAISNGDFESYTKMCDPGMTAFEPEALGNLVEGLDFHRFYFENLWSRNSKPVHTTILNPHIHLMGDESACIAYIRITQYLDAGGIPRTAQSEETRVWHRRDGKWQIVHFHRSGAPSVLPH
COc1cc(O)cc(OC)c1OC: -44%
CC(C)(C)C(O)/C=C/c1ccc2c(c1)OCO2 (stereo not shown): -5%
CC1(C)CC[C@]2(C(=O)O)CC[C@]3(C)C(=CC[C@@H]4[C@@]5(C)CC[C@H](O[C@@H]6O[C@H](C(=O)O)[C@@H](O)[C@H](O[C@@H]7OC[C@@H](O)[C@H](O)[C@H]7O)[C@H]6O)C(C)(C)[C@@H]5CC[C@]43C)[C@@H]2C1: -3%
Oc1ccc(N=Nc2ccccn2)c(O)c1: -4%
CN1CCc2cc3c(cc2C(=O)Cc2ccc4c(c2C1)OCO4)OCO3: -29%
C=C(CCC=C(C)C)[C@H]1CC[C@]2(C)[C@@H]1[C@H](O)C[C@@H]1[C@@]3(C)CC[C@H](O[C@@H]4O[C@H](CO)[C@@H](O)[C@H](O)[C@H]4O[C@@H]4O[C@H](CO)[C@@H](O)[C@H](O)[C@H]4O)C(C)(C)[C@@H]3CC[C@]12C: -6%
C=C1C(=O)O[C@@H]2/C=C(/C)C[C@H]3C=C(C[C@H](OC(=O)/C(C)=C\C)[C@@H]12)C(=O)O3: 12%
C[C@H]1O[C@@H](O[C@H]2CC[C@@]3(C)[C@@H](CC[C@]4(C)[C@@H]3C=C[C@]35OC[C@@]6(CCC(C)(C)C[C@H]63)[C@H](O)C[C@]54C)[C@]2(C)CO)[C@H](O)[C@@H](O[C@@H]2O[C@H](CO)[C@@H](O)[C@H](O)[C@H]2O)[C@H]1O: -4%
CC(C)(O[C@@H]1O[C@H](CO)[C@@H](O)[C@H](O)[C@H]1O)[C@@H]1CC[C@](C)([C@H]2[C@@H](O)C[C@@]3(C)[C@@H]4C[C@H](O)[C@H]5C(C)(C)[C@@H](O[C@@H]6OC[C@@H](O)[C@H](O)[C@H]6O)CC[C@@]56C[C@@]46CC[C@]23C)O1: 7%
O=c1[nH]cc(F)c(=O)[nH]1: -10%

Series 2 — effect on: acetyl-histone H4 peptide binding; technique: AlphaScreen displacement; concentration: 50 µM; quantity: inhibition
Target: Bromodomain-containing protein 4, BD1 (BRD4, Homo sapiens, UniProt O60885)
Cc1cc(O)c2c(c1)C(=O)c1cc(O)cc(O)c1C2=O: 51.8%
Br.CC(=O)c1cccc(Nc2nc(-c3c(C)nc4ccccn34)cs2)c1: 24.9%
CCOC(=O)c1[nH]c2ccc(F)cc2c1NC(=O)c1ccccc1C(=O)O: 4%
COc1ccc(-c2nnc3ccc(SCc4cccnc4)nn23)cc1OC: 18.1%
N#CC(=C(N)Sc1ccc(N)cc1)c1ccccc1C(F)(F)F: 6.5%
O=C(O)Cc1cc(Cl)c2oc(-c3ccccc3)c(O)c(=O)c2c1: 43.5%
Nc1nc(Nc2ccc(F)cc2)sc1C(=O)c1ccc(F)cc1: 41.6%
Cc1cncc2cccc(S(=O)(=O)N3CCCNC[C@@H]3C)c12: 2.15%
O=C1Cc2c([nH]c3ccc(Br)cc23)-c2ccccc2N1: 20.8%
CC(=C(C#N)c1nc2ccccc2s1)c1ccc(Cl)cc1: 0%
O=C1NC(=O)c2c1c1c3ccccc3[nH]c1c1[nH]c3cc(Br)ccc3c21: 47.7%
CCC(C)(C)C1CCc2sc3nc[nH]c(=O)c3c2C1 (stereo not shown): 8%
CC(=O)Nc1cn2c(NC(=O)c3cccnc3)c(Cc3ccccc3)nc2cn1: 9.4%
CCCCOC(=O)COC(=O)c1cc(=O)[nH]c2ccccc12: 2.05%
CN(C)CC1CCn2c(c(C3=C(c4cn(C)c5ccccc45)C(=O)NC3=O)c3ccccc32)C1.Cl (stereo not shown): 89.7%
N#Cc1c(-c2ccccc2)cc(-c2cc(Br)ccc2O)[nH]c1=O: 54.9%

Series 3 — concentration: 1 µM; quantity: remaining binding
Structure (SMILES): Cc1cc(NC(=O)c2cccc(S(F)(F)(F)(F)F)c2)cc(-n2ccn3nc(-c4cccnc4)cc23)c1
PIK3CA (Homo sapiens, UniProt P42336, E545A); cell-free assay, competition with immobilised ligand: 69.2%
PTK2B (Homo sapiens, UniProt Q14289); cell-free assay, competition with immobilised ligand: 100%
STK35 (Homo sapiens, UniProt Q8TDR2); cell-free assay, competition with immobilised ligand: 100%
PTK2 (Homo sapiens, UniProt Q05397); cell-free assay, competition with immobilised ligand: 96.4%
MAP4K1 (Homo sapiens, UniProt Q92918); cell-free assay, competition with immobilised ligand: 82.1%
STK24 (Homo sapiens, UniProt Q9Y6E0); cell-free assay, competition with immobilised ligand: 100%
ALK (Homo sapiens, UniProt Q9UM73); cell-free assay, competition with immobilised ligand: 68.1%
BUB1 (Homo sapiens, UniProt O43683); cell-free assay, competition with immobilised ligand: 100%
Ribosomal protein S6 kinase alpha-5, C-terminal kinase domain (RPS6KA5, Homo sapiens, UniProt O75582); cell-free assay, competition with immobilised ligand: 100%
MERTK (Homo sapiens, UniProt Q12866); cell-free assay, competition with immobilised ligand: 100%
GSK3A (Homo sapiens, UniProt P49840); cell-free assay, competition with immobilised ligand: 100%
ACVR2B (Homo sapiens, UniProt Q13705); cell-free assay, competition with immobilised ligand: 100%
STK17B (Homo sapiens, UniProt O94768); cell-free assay, competition with immobilised ligand: 100%
TYRO3 (Homo sapiens, UniProt Q06418); cell-free assay, competition with immobilised ligand: 88.4%
Tyrosine-protein kinase ABL1, phosphorylated (ABL1, Homo sapiens, UniProt P00519, F317I); binding: 100%
BRAF (Homo sapiens, UniProt P15056); cell-free assay, competition with immobilised ligand: 43.5%
PI4KB (Homo sapiens, UniProt Q9UBF8); cell-free assay, competition with immobilised ligand: 78.6%
PRPF4B (Homo sapiens, UniProt Q13523); cell-free assay, competition with immobilised ligand: 99.7%
PIK3CA (Homo sapiens, UniProt P42336, E545K); cell-free assay, competition with immobilised ligand: 72.5%
CSNK1G2 (Homo sapiens, UniProt P78368); cell-free assay, competition with immobilised ligand: 95.4%
GRK2 (Homo sapiens, UniProt P25098); cell-free assay, competition with immobilised ligand: 74.5%
CSNK2A1 (Homo sapiens, UniProt P68400); cell-free assay, competition with immobilised ligand: 66.7%
CDK11B (Homo sapiens, UniProt P21127); cell-free assay, competition with immobilised ligand: 100%
PRKACB (Homo sapiens, UniProt P22694); cell-free assay, competition with immobilised ligand: 100%
MAPK6 (Homo sapiens, UniProt Q16659); cell-free assay, competition with immobilised ligand: 100%

Series 4 — effect on: enzyme activity; action: inhibitor; concentration: 0.5 µM; baseline: control; quantity: remaining activity
SMILES: O=C1NC(=O)C(c2c[nH]c3ccccc23)=C1c1c[nH]c2ccccc12
CHEK1 (Homo sapiens, UniProt O14757): 93.1%
CSNK2A1 (Homo sapiens, UniProt P68400): 106%
PRKCD (Homo sapiens, UniProt Q05655): 55.5%
EPHA5 (Homo sapiens, UniProt P54756): 95.3%
WNK2 (Homo sapiens, UniProt Q9Y3S1): 92.7%
NEK4 (Homo sapiens, UniProt P51957): 96.4%
MAP3K10 (Homo sapiens, UniProt Q02779): 79%
PLK2 (Homo sapiens, UniProt Q9NYY3): 97.7%
MAP4K2 (Homo sapiens, UniProt Q12851): 84.9%
KIT (Homo sapiens, UniProt P10721): 68.5%
CSNK1A1 (Homo sapiens, UniProt P48729): 98.4%
MAPK13 (Homo sapiens, UniProt O15264): 104%
MAP2K6 (Homo sapiens, UniProt P52564): 98%
PRKG1 (Homo sapiens, UniProt Q13976): 76.8%
AKT3 (Homo sapiens, UniProt Q9Y243): 90%
LRRK2 (Homo sapiens, UniProt Q5S007): 77.5%
LYN (Homo sapiens, UniProt P07948): 104%
IRAK4 (Homo sapiens, UniProt Q9NWZ3): 92%
MKNK2 (Homo sapiens, UniProt Q9HBH9): 89.6%
Cyclin-dependent kinase 9, with cyclin T1 (CDK9, Homo sapiens, UniProt P50750): 89.9%
BTK (Homo sapiens, UniProt Q06187): 98.2%
MAPK12 (Homo sapiens, UniProt P53778): 93%

For quick reference, copied from above (series 1):
COc1cc(O)cc(OC)c1OC: -44%
CC(C)(C)C(O)/C=C/c1ccc2c(c1)OCO2 (stereo not shown): -5%
CC1(C)CC[C@]2(C(=O)O)CC[C@]3(C)C(=CC[C@@H]4[C@@]5(C)CC[C@H](O[C@@H]6O[C@H](C(=O)O)[C@@H](O)[C@H](O[C@@H]7OC[C@@H](O)[C@H](O)[C@H]7O)[C@H]6O)C(C)(C)[C@@H]5CC[C@]43C)[C@@H]2C1: -3%
Oc1ccc(N=Nc2ccccn2)c(O)c1: -4%
CN1CCc2cc3c(cc2C(=O)Cc2ccc4c(c2C1)OCO4)OCO3: -29%
C=C(CCC=C(C)C)[C@H]1CC[C@]2(C)[C@@H]1[C@H](O)C[C@@H]1[C@@]3(C)CC[C@H](O[C@@H]4O[C@H](CO)[C@@H](O)[C@H](O)[C@H]4O[C@@H]4O[C@H](CO)[C@@H](O)[C@H](O)[C@H]4O)C(C)(C)[C@@H]3CC[C@]12C: -6%
C=C1C(=O)O[C@@H]2/C=C(/C)C[C@H]3C=C(C[C@H](OC(=O)/C(C)=C\C)[C@@H]12)C(=O)O3: 12%
C[C@H]1O[C@@H](O[C@H]2CC[C@@]3(C)[C@@H](CC[C@]4(C)[C@@H]3C=C[C@]35OC[C@@]6(CCC(C)(C)C[C@H]63)[C@H](O)C[C@]54C)[C@]2(C)CO)[C@H](O)[C@@H](O[C@@H]2O[C@H](CO)[C@@H](O)[C@H](O)[C@H]2O)[C@H]1O: -4%
CC(C)(O[C@@H]1O[C@H](CO)[C@@H](O)[C@H](O)[C@H]1O)[C@@H]1CC[C@](C)([C@H]2[C@@H](O)C[C@@]3(C)[C@@H]4C[C@H](O)[C@H]5C(C)(C)[C@@H](O[C@@H]6OC[C@@H](O)[C@H](O)[C@H]6O)CC[C@@]56C[C@@]46CC[C@]23C)O1: 7%
O=c1[nH]cc(F)c(=O)[nH]1: -10%
